Measurements pooled from the literature.
Protocols differ between the studies behind these lines. Several values in a cell are separate wells, animals, samples, runs or records. Numbers after ± are the reported error.
ABCC3: ATP-binding cassette sub-family C member 3 (ABCC3, Homo sapiens, UniProt O15438)
Chain of UniProt O15438 (whole entry, looked up): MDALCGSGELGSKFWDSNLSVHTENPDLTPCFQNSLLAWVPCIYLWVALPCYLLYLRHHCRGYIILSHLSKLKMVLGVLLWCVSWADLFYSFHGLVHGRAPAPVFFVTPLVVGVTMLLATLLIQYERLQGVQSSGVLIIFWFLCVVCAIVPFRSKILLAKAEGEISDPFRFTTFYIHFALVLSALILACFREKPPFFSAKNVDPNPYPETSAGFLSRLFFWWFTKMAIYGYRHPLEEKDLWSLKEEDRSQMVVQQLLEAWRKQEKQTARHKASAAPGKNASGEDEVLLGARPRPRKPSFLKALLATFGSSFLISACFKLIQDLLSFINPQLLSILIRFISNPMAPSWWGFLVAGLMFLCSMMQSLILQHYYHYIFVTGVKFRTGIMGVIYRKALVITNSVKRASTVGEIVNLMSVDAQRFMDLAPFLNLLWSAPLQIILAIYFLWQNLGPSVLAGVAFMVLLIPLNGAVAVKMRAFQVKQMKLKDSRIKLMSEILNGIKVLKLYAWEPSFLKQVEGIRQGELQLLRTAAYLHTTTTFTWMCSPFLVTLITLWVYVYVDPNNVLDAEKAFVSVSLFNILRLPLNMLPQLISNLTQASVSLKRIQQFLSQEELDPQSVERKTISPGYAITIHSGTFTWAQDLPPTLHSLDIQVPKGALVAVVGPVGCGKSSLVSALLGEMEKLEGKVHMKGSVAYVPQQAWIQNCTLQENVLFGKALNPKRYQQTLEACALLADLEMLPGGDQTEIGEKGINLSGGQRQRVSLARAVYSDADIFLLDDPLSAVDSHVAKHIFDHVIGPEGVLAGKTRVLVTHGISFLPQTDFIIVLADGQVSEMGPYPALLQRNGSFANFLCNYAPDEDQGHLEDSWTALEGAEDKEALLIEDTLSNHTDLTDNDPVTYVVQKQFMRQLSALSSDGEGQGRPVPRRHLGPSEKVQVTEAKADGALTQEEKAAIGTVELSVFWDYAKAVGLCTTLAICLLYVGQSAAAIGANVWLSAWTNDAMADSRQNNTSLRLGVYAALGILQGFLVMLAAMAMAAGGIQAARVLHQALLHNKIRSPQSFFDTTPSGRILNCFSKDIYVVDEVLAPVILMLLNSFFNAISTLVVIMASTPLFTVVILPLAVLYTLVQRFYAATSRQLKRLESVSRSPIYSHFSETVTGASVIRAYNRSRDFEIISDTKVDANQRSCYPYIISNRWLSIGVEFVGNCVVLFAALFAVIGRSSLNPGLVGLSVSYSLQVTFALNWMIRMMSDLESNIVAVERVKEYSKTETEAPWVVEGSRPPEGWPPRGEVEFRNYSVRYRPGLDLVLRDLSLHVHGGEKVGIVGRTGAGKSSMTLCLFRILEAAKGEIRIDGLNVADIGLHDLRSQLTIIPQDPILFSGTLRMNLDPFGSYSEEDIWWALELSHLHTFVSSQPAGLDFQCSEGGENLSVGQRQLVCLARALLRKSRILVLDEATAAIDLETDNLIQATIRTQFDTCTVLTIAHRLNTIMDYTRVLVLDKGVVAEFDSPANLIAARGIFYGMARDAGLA
KCNH2: Voltage-gated inwardly rectifying potassium channel KCNH2 (KCNH2, Homo sapiens, UniProt Q12809)
Chain of UniProt P10632 (whole entry, looked up): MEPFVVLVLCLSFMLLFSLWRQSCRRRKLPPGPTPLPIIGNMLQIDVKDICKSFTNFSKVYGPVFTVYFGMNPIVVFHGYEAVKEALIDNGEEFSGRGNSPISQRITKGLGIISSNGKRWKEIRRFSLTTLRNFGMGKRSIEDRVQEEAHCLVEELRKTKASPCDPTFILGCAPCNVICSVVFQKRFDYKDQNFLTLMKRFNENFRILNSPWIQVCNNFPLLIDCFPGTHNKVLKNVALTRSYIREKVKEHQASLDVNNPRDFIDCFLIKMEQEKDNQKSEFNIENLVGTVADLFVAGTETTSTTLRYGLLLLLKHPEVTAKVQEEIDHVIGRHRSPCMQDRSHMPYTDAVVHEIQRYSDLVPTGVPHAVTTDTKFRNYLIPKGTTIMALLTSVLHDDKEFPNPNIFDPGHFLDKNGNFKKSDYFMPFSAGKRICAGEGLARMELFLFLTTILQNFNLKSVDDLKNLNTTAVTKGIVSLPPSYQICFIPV
Chain of UniProt Q12809 (whole entry, looked up): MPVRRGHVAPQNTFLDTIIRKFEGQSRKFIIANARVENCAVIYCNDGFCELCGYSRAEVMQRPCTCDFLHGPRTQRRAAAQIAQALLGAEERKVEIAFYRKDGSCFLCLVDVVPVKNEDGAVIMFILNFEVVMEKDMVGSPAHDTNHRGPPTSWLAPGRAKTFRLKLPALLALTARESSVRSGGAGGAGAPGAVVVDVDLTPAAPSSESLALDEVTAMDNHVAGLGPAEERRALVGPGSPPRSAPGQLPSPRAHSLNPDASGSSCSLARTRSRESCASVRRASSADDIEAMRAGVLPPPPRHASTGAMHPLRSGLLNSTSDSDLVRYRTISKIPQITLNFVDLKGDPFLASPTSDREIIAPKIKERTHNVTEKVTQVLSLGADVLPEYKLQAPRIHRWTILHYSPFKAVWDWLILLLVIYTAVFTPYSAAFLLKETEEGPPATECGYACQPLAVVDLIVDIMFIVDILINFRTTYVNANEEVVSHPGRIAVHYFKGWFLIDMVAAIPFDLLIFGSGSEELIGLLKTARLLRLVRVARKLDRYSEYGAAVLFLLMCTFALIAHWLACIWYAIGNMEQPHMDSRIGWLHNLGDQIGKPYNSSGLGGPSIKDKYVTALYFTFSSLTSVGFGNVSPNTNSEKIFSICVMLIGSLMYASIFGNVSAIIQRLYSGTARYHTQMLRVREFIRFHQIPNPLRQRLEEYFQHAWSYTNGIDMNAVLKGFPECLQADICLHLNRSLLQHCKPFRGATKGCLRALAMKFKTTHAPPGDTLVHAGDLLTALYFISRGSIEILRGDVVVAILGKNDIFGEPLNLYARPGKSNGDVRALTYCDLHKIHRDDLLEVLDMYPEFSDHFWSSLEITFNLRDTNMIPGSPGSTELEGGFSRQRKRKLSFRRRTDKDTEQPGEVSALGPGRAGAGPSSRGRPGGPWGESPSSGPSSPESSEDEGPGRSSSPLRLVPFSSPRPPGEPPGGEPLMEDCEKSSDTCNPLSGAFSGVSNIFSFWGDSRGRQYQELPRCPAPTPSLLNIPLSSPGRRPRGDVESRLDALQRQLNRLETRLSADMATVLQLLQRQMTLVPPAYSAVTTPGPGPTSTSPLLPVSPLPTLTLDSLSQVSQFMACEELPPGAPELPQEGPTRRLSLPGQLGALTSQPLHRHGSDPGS

`CNC(=O)C1CCCN(C(=O)C2CC3CCC2N3C(=O)[C@@H]2C[C@@H](O)CN2C(=O)NCc2cccc(Cl)c2F)C1` (mixture of isomers) gave a remaining activity of 92.3% and 88% and 101% (Cytochrome P450 2C8 (CYP2C8, Homo sapiens, UniProt P10632); preincubation with NADPH; human; 0.0686 µM; reference: negative control).
`Clc1cc2nc(c1)CNCc1cc(Cl)cc(n1)CNC2.[Cu+2]` — result for “anodic peak potential”: -601 mV (Cu(II)/Cu(I) redox couple; cyclic voltammetry; DMF; added: TBAP; reference: Fc/Fc+).
`O=C(Nc1cnccc1-c1ccc([18F])cc1)c1ccnc(NC(=O)C2CC2)c1` gave an SUV of 1.22 ± 0.45 (GSK-3β imaging tracer; FVB/NJ mice, both sexes, brain; intravenous, 1 min, early frames, no P-gp inhibitor).
`O=C(c1ccc(OCCN2CCCCC2)cc1)c1c(-c2ccc(O)cc2)sc2cc(O[C@@H]3O[C@H](C(=O)O)[C@@H](O)[C@H](O)[C@H]3O)ccc12` gave an inhibition of > 75% (ABCC3; transporter uptake, inhibitor; Sf9; 10 µM, pH 7, cell membranes).
`Cc1cc(/C=C/C#N)cc(C)c1Oc1nc(NC2CCN(Cc3ccc(S(C)(=O)=O)cc3)CC2)nc2ncccc12` gave an inhibition of 40.1% (KCNH2; hERG current, manual patch clamp; CHO stably expressing hERG; 1 µM).
For `FC(F)(F)c1cc2nc(c1)CNCc1cc(C(F)(F)F)cc(n1)CNC2.[Cu+2]`, “peak potential separation” read 283 mV (Cu(II)/Cu(I) redox couple; cyclic voltammetry; DMF; 0.1 M TBAP, 100 mV/s scan).
For `O=C(c1ccc(OCCN2CCCCC2)cc1)c1c(-c2ccc(O[C@@H]3O[C@H](C(=O)O)[C@@H](O)[C@H](O)[C@H]3O)cc2)sc2cc(O)ccc12`, “efflux clearance share” read ~90% (ABCC3; intestine and liver; in vivo extrapolation).
`O=C(O)CN1CCN(CC(=O)O)CCN(Cc2cccc(P(=O)(O)O)n2)CC1`: “log K101 stability constant” 23.5 (Y3+; UV-vis spectrophotometric titration; [M(L)]- complex).
The SUV of `O=C(Nc1cnccc1-c1ccc([18F])nc1)c1ccnc(NC(=O)C2CC2)c1` is reported as 0.45 ± 0.2 (GSK-3β imaging tracer; FVB/NJ mice, both sexes, brain; intravenous, 1 min, early frames, no P-gp inhibitor).
`[Cu+2].c1cc2nc(c1)CNCc1cccc(n1)CNC2`: “anodic peak potential” -690 mV (Cu(II)/Cu(I) redox couple; cyclic voltammetry; DMF; added: TBAP; reference: Fc/Fc+).
For `O=C(O)CN1CCN(Cc2cccc(C(=O)O)n2)CCN(CP(=O)(O)O)CC1`, “log K101 stability constant” read 23.8 (Y3+; UV-vis spectrophotometric titration; [M(L)]- complex).
With `Ic1cc2nc(c1)CNCc1cc(I)cc(n1)CNC2.[Cu+2]` the half-wave potential was -687 mV (Cu(II)/Cu(I) redox couple; cyclic voltammetry; DMF; added: TBAP; reference: Fc/Fc+).
With `O=C1NC2(CC2)COc2ncc(F)cc2[C@H]2COCCN2c2ccn3ncc1c3n2` the inhibition was 3.75 ± 2.3% (KCNH2; potassium current, whole-cell patch clamp; CHO cells expressing hERG; 0.16 µM).
